Assay results collected from several papers.
Each numbered part is a random draw from the data of one study; scales do not carry over between parts.

Study 1 — technique: RNA Bind-n-Seq; form: RNA; matrix: in vitro; tested at: 365 nM; baseline: no-protein control; direction: higher = stronger binding
Target: RNA binding protein fox-1 homolog 2, RRM domain, GST-SBP tag (RBFOX2, Homo sapiens, UniProt O43251-10, residues 100-194)
Setting: natural RNA segment, single round, ends assumed
Residues (chain): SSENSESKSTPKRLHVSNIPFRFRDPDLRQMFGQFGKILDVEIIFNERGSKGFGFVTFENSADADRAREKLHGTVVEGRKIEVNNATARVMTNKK
Strand	RBNS enrichment (R)
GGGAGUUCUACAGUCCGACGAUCGACCAACCCUGCCAAGUCUAAUGGCAGUGGUCUGGGCACCUGAUGUAGUUUGGGGACACUCUGUAUUCCUGUUUUCAUUCUAACAAAGAGGACAGAGCUAUUUUGCUAUGUGGAAUUCUCGGGUGCCAA	0.275
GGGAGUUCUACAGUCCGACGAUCCUCCCUCUAUGUCUAUGGUGUCCCCUGGGUUACACAGCUAAACGUGAGGGACCAUCUACCCCCCACCUAUCCUCGAGCACCAGGCUUGUGAGAUGAGACAGAGGGUGGAGUGGAAUUCUCGGGUGCCAA	0.293
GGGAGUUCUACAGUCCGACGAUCUUACAUGUAAAUACUUGUAUUUACCAAAGAUUUAAAUCAGUUGAUUAAUUAAUUAACUCAAAUACUGUGAACUAUCUCUAAAACACUAGAAAAAAGAAAUGUUAGUAUCUUGGAAUUCUCGGGUGCCAA	0.388
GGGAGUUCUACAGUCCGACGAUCUGCUCUGCACCCCUCCCUUGGGAGGGAGACUUCAUGUGGUUUAUUGCGAGUUUUUUGUUUACUUUUCAGGUUUGUACUACAAGGUUUAAUAAUAAAAACAAAGUUUUUUGUGGAAUUCUCGGGUGCCAA	0.419
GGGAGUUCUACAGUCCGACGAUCGGAUGGACUAGACCCAUAAAUGUGCCAUGAAUCAAAAUAUUAAUAAUUUGAAAGCUUUCAUGCUGUUAGCCCCUGAUGAAAUUCUCAGCAUUAACUGGCCAGCUCCUCUGUGGAAUUCUCGGGUGCCAA	1.15
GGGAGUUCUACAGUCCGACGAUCUUUAUUUGUAUAAAAAUACUCAUCUUUUCAGACUUUUUUGUAAACCCCCAGUUGUGAAAACUGCAGUUUAGCAGUGACCUCAGCAACCCCUCCUUUUUAUUUUUUCCUUUUGGAAUUCUCGGGUGCCAA	0.47
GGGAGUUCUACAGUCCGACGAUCCCUUUUCCACUUGACAUGCUAGAAUUUUGGUGUGUGUGUGUGUGUGUGUGUAUUUGUUCACGAGCACAAUAGCUCCCAUGGGGGUCUGCACAUGCAGGUGUCCACCAGCAUGGAAUUCUCGGGUGCCAA	5.22
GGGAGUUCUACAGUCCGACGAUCGAGGUUUCUCUGCCUAGCCAUAGCAUCAUUAAUAGAUGUCCAAAAAUGAGCAAUUCUGGGAAUCACGCAGUGGGUUUUAAGGUAGUUAAUAUCUAUGGUAUAUUAAAAGGUGGAAUUCUCGGGUGCCAA	0.334

Study 2 — effect on: enzyme activity; mode: inhibitor; tested at: 20 µM; setting: primary screen
Target: Replicase polyprotein 1ab, main protease (rep, Severe acute respiratory syndrome coronavirus 2, UniProt P0DTD1)
SMILES	inhibition [%]
O=C(O)C1=CC(=C(c2ccc(O)c(C(=O)O)c2)c2ccc(O)c(C(=O)O)c2)C=CC1=O	95
N#Cc1c(O)c2c(-c3ccc(-c4ccccc4O)cc3)csc2[nH]c1=O	54
Cc1ccccc1N(C)C(=O)c1ccc([S+]([O-])c2nccs2)c([N+](=O)[O-])c1 (centres unmarked)	96.7
N[C@@H](Cc1cc(-c2ccc(Cl)cc2Cl)cc(CP(=O)(O)O)c1O)C(=O)O	43.3

Study 3 — technique: universal PBM; form: double-stranded DNA, one strand shown; matrix: in vitro; tested at: 600 nM; direction: higher = stronger binding
Target: Sal-like protein 4, full length isoform A (SALL4, Homo sapiens, UniProt Q9UJQ4, residues 1-1053)
Chain of UniProt Q9UJQ4 (whole entry, looked up): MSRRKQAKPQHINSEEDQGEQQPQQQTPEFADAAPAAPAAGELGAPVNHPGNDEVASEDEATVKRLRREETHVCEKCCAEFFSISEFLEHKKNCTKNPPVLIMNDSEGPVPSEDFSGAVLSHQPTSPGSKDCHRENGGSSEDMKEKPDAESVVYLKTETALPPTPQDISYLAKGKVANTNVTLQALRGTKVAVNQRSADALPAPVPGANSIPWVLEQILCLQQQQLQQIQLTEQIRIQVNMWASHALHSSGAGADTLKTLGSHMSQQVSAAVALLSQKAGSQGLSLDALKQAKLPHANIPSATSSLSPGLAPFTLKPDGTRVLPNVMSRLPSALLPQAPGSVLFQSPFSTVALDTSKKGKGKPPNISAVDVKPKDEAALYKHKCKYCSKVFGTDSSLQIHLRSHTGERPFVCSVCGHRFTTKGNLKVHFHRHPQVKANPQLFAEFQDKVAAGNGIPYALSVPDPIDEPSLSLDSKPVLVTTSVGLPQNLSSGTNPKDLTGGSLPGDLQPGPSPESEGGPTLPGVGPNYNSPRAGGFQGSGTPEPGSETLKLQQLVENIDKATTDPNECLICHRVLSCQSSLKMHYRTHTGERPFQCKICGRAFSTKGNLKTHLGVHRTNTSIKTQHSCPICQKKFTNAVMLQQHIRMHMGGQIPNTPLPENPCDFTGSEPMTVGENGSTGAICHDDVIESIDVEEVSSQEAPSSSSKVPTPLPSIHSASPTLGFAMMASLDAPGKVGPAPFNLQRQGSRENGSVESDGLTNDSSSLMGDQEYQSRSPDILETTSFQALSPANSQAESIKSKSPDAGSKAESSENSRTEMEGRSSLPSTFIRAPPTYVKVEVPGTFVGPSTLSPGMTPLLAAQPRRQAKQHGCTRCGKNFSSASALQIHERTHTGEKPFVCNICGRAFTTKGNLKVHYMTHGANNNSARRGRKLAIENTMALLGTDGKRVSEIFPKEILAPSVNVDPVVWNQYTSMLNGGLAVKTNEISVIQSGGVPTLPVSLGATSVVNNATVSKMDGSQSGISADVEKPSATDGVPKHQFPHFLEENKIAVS
Setting: 8-mer, flanks averaged, mean of replicates
Strand	E-score
GACATCAA	0.188
CCAGCGGC	-0.355
TAGGTCAA	0.149
GAAGGGCA	-0.161
AGACTGGG	-0.127
CAATCGCA	0.0276
AACCAAAG	0.129
CTAGGTCA	-0.0352

Study 4 — mode: inhibitor; tested at: 20 µM
Target: Replicase polyprotein 1ab, nsp13 helicase (rep, Severe acute respiratory syndrome coronavirus 2, UniProt P0DTD1)
Structure (SMILES)	inhibition [%]
COc1ccc(-n2nc(CCC(=O)N(C)O)cc2-c2ccc(Cl)cc2)cc1	-0.25
CN(C)c1ccc(C(=O)NCCCCCCC(=O)NO)cc1	7.21
Nc1cc(F)ccc1NC(=O)c1ccc(CNC(=O)/C=C/c2cccnc2)cc1	1.02
O=C1CCC[C@@H]2[C@H]3CCC[N+]4([O-])CCC[C@@H](CN12)[C@@H]34 (some centres unmarked)	7.97
C[C@]12CC[C@H]3[C@@H](CCC4=CC(=O)CC[C@@]43C)[C@@H]1CC[C@@H]2O	2.75
CCCCNc1ccc(C(=O)OCCN(C)C)cc1	-2.05
CCN(CC)CCOC(=O)c1ccc(N)cc1	4.31
Nc1c(CC(=O)O)cccc1C(=O)c1ccc(Br)cc1	3.4
C[C@H](NC(=O)c1sccc1OCc1ccc(Cl)cc1)c1ccccc1	1.36
CN1CCN(c2ccc(Nc3ncc4cc(C#N)c(=O)n(C5CCCC5)c4n3)cc2)CC1	-1.27
Cn1nnc2c(C(N)=O)ncn2c1=O	1.59
C[C@H](N)C(=O)O	-1.29
CCO[C@@H](Cc1ccc(OCCc2ccc(OS(C)(=O)=O)cc2)cc1)C(=O)O	-4.25
CCOc1cc(C=O)ccc1O	-7.27
COc1cc(N)c(Cl)cc1C(=O)OCCCN1CCCCC1	-1.03
N#C/C(=C\c1ccc(O)c(O)c1)C(=O)NCCCc1ccccc1	20.2
COc1ccc2cc(-c3cc(-c4cc(Cl)cc(Cl)c4)nn3[C@@H](C)c3ccc(C(=O)NCCC(=O)O)cc3)ccc2c1	2.5
c1ccc(C2(c3ccccc3)CC2C2=NCCN2)cc1 (centres unmarked)	-7.01
NCCC(Oc1ccc(C(F)(F)F)cc1)c1ccccc1 (centres unmarked)	0.17
COc1cc(OC2CCN(C)CC2)ccc1Nc1ncc2c(n1)n(C1CCCC1)c(=O)n2C	7.11
Nc1ccccc1C(=O)O	1.7
CCc1c(-c2ccccc2)c(-c2ccccc2)nn1-c1ccccc1-c1cccc(OCC(=O)O)c1	40.9
O=C(O)c1ccc(-n2nc(-c3ccccc3O)nc2-c2ccccc2O)cc1	-3.69
Cc1cc(NC(=O)C(c2ccccc2)N2CCCc3ccccc32)no1 (centres unmarked)	0.94
O=C(O)c1ccccc1C(=O)Nc1ccc(S(=O)(=O)Nc2nccs2)cc1	4.64

Study 5 — cell line: HEK-293T/ACE2; tested at: concentration not given; time: 16 (unit not given); baseline: vehicle
SMILES	viability [%]
CC(C)(C)NC(=O)[C@H]1CC[C@H]2[C@@H]3CC[C@H]4NC(=O)C=C[C@]4(C)[C@H]3CC[C@]12C	103
CC1=C(/C=C/C(C)=C/C=C/C(C)=C/C=C/C=C(C)/C=C/C=C(C)/C=C/C2=C(C)CCCC2(C)C)C(C)(C)CCC1	102
COc1ccc(CN=c2[nH]c(N3CCC[C@H]3CO)ncc2C(=O)NCc2ncccn2)cc1Cl	101
CCCCC(=O)O[C@]1(C(=O)CO)CC[C@H]2[C@@H]3CCC4=CC(=O)CC[C@]4(C)[C@H]3[C@@H](O)C[C@@]21C	102
Cc1nc2n(c(=O)c1CCN1CCC(c3noc4cc(F)ccc34)CC1)CCCC2O (centres unmarked)	96.2

Excerpt of the above (study 5):
SMILES	viability [%]
CC(C)(C)NC(=O)[C@H]1CC[C@H]2[C@@H]3CC[C@H]4NC(=O)C=C[C@]4(C)[C@H]3CC[C@]12C	103
CC1=C(/C=C/C(C)=C/C=C/C(C)=C/C=C/C=C(C)/C=C/C=C(C)/C=C/C2=C(C)CCCC2(C)C)C(C)(C)CCC1	102
COc1ccc(CN=c2[nH]c(N3CCC[C@H]3CO)ncc2C(=O)NCc2ncccn2)cc1Cl	101
CCCCC(=O)O[C@]1(C(=O)CO)CC[C@H]2[C@@H]3CCC4=CC(=O)CC[C@]4(C)[C@H]3[C@@H](O)C[C@@]21C	102
Cc1nc2n(c(=O)c1CCN1CCC(c3noc4cc(F)ccc34)CC1)CCCC2O (centres unmarked)	96.2
